Experimental data collected from several papers.
Numbered parts are unrelated; each lists some results of a single study.

Series 1
Target: Ras GTPase-activating protein-binding protein 1, C-terminal RGG region (G3BP1, Homo sapiens, UniProt Q13283)
Chain of UniProt Q13283 (whole entry, looked up): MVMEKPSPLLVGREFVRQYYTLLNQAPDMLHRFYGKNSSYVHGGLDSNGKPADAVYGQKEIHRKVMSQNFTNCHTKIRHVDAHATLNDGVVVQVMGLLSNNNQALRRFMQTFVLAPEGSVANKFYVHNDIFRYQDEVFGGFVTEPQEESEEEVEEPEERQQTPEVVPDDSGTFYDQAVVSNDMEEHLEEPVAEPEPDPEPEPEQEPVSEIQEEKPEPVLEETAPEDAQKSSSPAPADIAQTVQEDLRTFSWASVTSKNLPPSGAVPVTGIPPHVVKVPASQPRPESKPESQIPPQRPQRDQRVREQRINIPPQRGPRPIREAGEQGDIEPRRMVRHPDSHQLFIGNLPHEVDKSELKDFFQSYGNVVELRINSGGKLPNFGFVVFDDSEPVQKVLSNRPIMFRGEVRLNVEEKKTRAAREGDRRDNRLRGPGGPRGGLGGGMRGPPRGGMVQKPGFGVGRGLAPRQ
Method: RNA Bind-n-Seq
Molecule type: RNA
Medium: in vitro
Tested at: 1 µM
Notes: whole 134-nt RNA, ends assumed
Together with: 150 mM KCl
Relative to: input library
Direction: higher = stronger binding
Strand | log2 enrichment
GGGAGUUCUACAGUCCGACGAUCAAGUCCUGUGCUACACAUCGUAUGUACCGAAUCGGAAAAGGGAAAAGGGAAAAGGGAAAGUAUUAUGUUACGCCGUUCGGAUCUGCACUUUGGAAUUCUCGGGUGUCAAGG | -1.41
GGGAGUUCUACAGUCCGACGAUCGUCCUGUGCUACACAUCGUAUGUACCGAAUCGGAAAAAGGAAAAAGGGGAAAAAGGGGAAAGUAUUAUGUUACGCCGUUCGGAUCUGCACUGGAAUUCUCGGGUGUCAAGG | -0.919
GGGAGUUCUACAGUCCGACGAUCUCCUCAAGUCCUGUGCUACACAUCGUAUGUACCGAAUCGGCCGGCCGGCCGGAAAGUAUUAUGUUACGCCGUUCGGAUCUGCACUUCCAGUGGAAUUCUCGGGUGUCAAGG | 0.013
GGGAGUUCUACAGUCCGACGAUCCUCAAGUCCUGUGCUACACAUCGUAUGUACCGAAUCGGAGGUUUUUGGAAAGGAAAGUAUUAUGUUACGCCGUUCGGAUCUGCACUUCCAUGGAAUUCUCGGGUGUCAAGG | -1.27
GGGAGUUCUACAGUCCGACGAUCAGUCCUGUGCUACACAUCGUAUGUACCGAAUCGGGGAGGGGUGGGGAAAAAAAGGGGAAAGUAUUAUGUUACGCCGUUCGGAUCUGCACUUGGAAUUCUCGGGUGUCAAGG | 1.44
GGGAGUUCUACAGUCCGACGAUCAAGUCCUGUGCUACACAUCGUAUGUACCGAAUCGGGGUUUUGGGUUUUGGUUUUGGGAAAGUAUUAUGUUACGCCGUUCGGAUCUGCACUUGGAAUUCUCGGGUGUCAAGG | -1.26
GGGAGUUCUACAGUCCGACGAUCAAGUCCUGUGCUACACAUCGUAUGUACCGAAUCGUGUGUGUGUGUGUGUGUGUGUGAAAGUAUUAUGUUACGCCGUUCGGAUCUGCACUUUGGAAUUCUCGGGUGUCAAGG | 1.29
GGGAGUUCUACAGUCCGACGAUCUUGCGAAAAGGACCAAUUCCAGUGCCGGAACGAGCGCUGCAUCCCCUCUGUGUGGAGAUGCGACGAGGACGAUGACUGCUUAGACCACAGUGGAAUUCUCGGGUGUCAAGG | 0.511
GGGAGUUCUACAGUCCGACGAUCCAAGUCCUGUGCUACACAUCGUAUGUACCGAAUCGGGGUGGGGUUUGGGGUGGGGAAAGUAUUAUGUUACGCCGUUCGGAUCUGCACUUCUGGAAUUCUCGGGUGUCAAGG | 3.06
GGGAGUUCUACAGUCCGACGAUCUCAAGUCCUGUGCUACACAUCGUAUGUACCGAAUCGGGUUGGGUUGGGGUUGGGAAAGUAUUAUGUUACGCCGUUCGGAUCUGCACUUCCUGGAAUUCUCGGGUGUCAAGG | 2.38
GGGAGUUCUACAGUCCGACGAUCUCCCUGAAUCACCGACUGGAGGAGAGUUACCUACAAGAGCCUUCAUCCAGGAGCAUCCACACUGCAAUGAUAUAGGAAUGAGGUCUGAACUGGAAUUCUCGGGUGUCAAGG | -0.798
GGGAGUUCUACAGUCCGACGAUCUGGGAGGUGGAUUUUGUUUAUUUUUUUAGCUCAUUUCCAGGGGUGGGAAUUUUUUUUUAAUAUGUGUCAUGAUUAAAGUUGUUUUUGAAAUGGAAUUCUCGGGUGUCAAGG | 3.61
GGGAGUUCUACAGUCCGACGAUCCAAGUCCUGUGCUACACAUCGUAUGUACCGAAUCGGGUUUGGGGUUUGGGUUUGGAAAGUAUUAUGUUACGCCGUUCGGAUCUGCACUUCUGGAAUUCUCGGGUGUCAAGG | -0.897
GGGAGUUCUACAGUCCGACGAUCACCAUGCAGGUGGGCAUCUUUGGGAAGUGGGGCAAGGGGGGGAUGGGGAGGGGGGUAACACUUUGGGAACAGGUGGUCCCAGGUCGUUUCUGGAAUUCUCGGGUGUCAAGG | 2.09

Series 2
Target: RING finger protein unkempt homolog, zinc fingers 1-6, GST-SBP tag (UNK, Homo sapiens, UniProt Q9C0B0, residues 30-357)
Chain of UniProt Q9C0B0 (30-357, looked up): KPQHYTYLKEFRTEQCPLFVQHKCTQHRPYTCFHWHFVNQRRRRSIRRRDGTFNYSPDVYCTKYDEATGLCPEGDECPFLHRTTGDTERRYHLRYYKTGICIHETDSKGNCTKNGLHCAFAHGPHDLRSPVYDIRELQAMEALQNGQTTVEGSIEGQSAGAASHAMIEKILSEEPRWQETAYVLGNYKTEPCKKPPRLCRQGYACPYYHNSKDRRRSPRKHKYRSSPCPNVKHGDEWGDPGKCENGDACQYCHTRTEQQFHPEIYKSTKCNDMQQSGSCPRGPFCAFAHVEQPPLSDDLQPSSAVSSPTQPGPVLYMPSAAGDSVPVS
Method: RNA Bind-n-Seq
Molecule type: RNA
Medium: in vitro
Tested at: not given
Notes: RNA with constant flanks, human and mouse sites, ends assumed
Relative to: input RNA pool
Direction: higher = stronger binding
Strand | bound/input enrichment
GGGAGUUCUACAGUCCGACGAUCCUGGCAGGGGCUGCUGAGGAGGAGGAGAGCGGGCUGCCCGGGGCCGGGCCUGGCUCCUGUGCUUUUGGGGAGGAGAUUCCCAUGGAUGGGGAGCCUCCUGCCUCCUCGGGCCUGGGGCUCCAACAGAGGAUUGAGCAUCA | 0.275 ratio
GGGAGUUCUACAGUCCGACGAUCUCUCCUGUCCCCUCCCCUCCCCACCCCAUCUAUUAAUAUUAUUCUUUUGAAGAUUCUUCGUUGUCAAGCCGCCAAAGUGGAGAGUGCGAUUGCAGAAGGGGGUGCUUCUCGUUUCAGUGCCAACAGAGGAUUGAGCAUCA | 1.44 ratio
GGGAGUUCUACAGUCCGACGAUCAAUUCUGUUGAAGACAGUUGAGAAUUCCUUUGGAGAAAACAGCCCAGCUUGGCGUGGGGUUAGGUUGCUGUUUCAAAUAACUCACAGGCCCAGGUGACAUGGAAUCUUGGAGCAGCCUUGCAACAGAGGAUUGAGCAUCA | 0.294 ratio
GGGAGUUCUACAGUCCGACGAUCUGGACCUAGAUGAUGAGUUGUACCUGGGUGGCUUGCCAGAAAAUAAGGCUGGCCUAGUCUUCCCUACCGAGGUGUGGACUGCUCUGCUCAACUACGGCUACGUGGGCUGCAUCCGGGACCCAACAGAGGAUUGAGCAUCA | 0.219 ratio
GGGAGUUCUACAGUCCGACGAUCGGACACUGUGUACACAUGCGGGGAUUACCAUACAGAGCUACUGAGAAUGACAUUUAUAAUUUUUUUUCACCACUCAACCCUGUGAGAGUACAUAUUGAGAUUGGACCUGAUGGCAGAGUACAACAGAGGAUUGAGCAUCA | 1.58 ratio
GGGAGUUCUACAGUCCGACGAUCGAGAGCCGCCUGUCCUGGUUAGAUGGUUCGGGAUUAGGAUUCUCACUGGAAUACCCCACCAUUAGUUUACAUGCGGUGUCCAGGGAUCCAAACGCUUACCCUCAAGAGCAUUUGUAUGUUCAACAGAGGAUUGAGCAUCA | 0.351 ratio
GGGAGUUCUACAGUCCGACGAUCAUUUAUAUUUGUGAAAAAUGCCACUGUCCUAGUGAUUUCUGAUGUAAAUAAUGUUGUUUAUAUAGUAUGUAUUAAAUUUUCCUACAUUGUAAAACUGCUGUACUUUUGAUUCUUGUAUAUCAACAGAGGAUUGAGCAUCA | 1.43 ratio
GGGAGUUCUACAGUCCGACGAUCGAGCAAAAACACAGGGAAGAACUGGAGCAAUUGAAGCAAUUGACUUUCAAGGACAGUAAGAUAGAUUCUGUUGCUGUUAACAUUUCAAACUUGGUACUUGAGAAUCAACCACCUCGGAUUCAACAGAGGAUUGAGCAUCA | 0.272 ratio
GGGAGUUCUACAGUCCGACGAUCCAAGUUCCCUAUAAAUAUGAUUUAUAUGAAAAAACUUUGAAGUACAAUUCAGACUUACUUAGCAGUAGAAACUGUGUAAGAAAGAAAGGAGACGGGUGUGGUGGAUUUGGGGAACCACUUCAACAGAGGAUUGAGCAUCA | 0.348 ratio
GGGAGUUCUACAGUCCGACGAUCACGUUUACCCACUUGAAACAGCAGCUCUCUCUGCUCCCUCUAAUGGAACCAAUCAUUGGAGUGAACUUUGCGCACUUUCUUCCUUAUGGCAGUGGCCAAUUUAAUAGUGGGAAUCGACUUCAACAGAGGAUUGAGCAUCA | 0.111 ratio
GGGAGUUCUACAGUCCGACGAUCCAAGUGGGAACAGAAUUCAAAAGUAACUUUCCAGAAAAGAAUUUUAAAGUUGGCAUUUCAGAGCAGAAAUUUAAAUUUGGGCAUGUGGAUCAAGAAAAAACACCUUCCUUUGCCUUUCAGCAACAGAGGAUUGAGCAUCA | 0.637 ratio

Series 3
Target: Interferon regulatory factor 5, full length, phosphomimetic (IRF5, Homo sapiens, UniProt Q13568-2, residues 1-514, K96S/S451D/S453D/S456D/S462D)
Method: protein-binding microarray
Molecule type: double-stranded DNA, one strand shown
Medium: in vitro
Tested at: 250 nM
Notes: 60-bp whole probe
Together with: salmon DNA 0.4 mg/ml
Relative to: random background probes
Direction: higher = stronger binding
Constant ends, left off below: GCCTAGCAC … GTCTTGATTCGCTTGACGCTGCTG
Strand | log fluorescence
GATGGACTGCTTATCCTGACGTGCTAG | -0.349 z-score
GACGAACTGAGTCTCGAGAAGTGCTAG | -0.257 z-score
TCATCAATCATTTTCGTACTGTGCTAG | 2.39 z-score
TTTCTCTCATTATGTGGGTTGTGCTAG | 6.54 z-score
GACGGTATCCTTATCCTGACGTGCTAG | -0.208 z-score
TTAGGTTTCCACTTTCGGTTAGTGCTA | 10.6 z-score
GACGATATCAGTCTCCAGACGTGCTAG | 1.1 z-score
TTAGAAATGAGTCTCGATTAGTGCTAG | 1.1 z-score
GACGATATCGAGTATCGAGACGTGCTA | 2.8 z-score
TCATTTTGGTTTCTGGTACTGTGCTAG | 4.65 z-score
TTATGTTCCGGTTTCGGTTAGTGCTAG | 9.91 z-score
GACGGTTTCGAACTGGGGACGTGCTAG | 2.45 z-score
TTAGATTTCAGTTTCCATTAGTGCTAG | 3.77 z-score

Series 4
Target: Histone acetyltransferase KAT6A, winged helix 1, GST fusion (KAT6A, Homo sapiens, UniProt Q92794, residues 1-85)
Method: protein binding microarray
Molecule type: double-stranded DNA, one strand shown
Medium: in vitro
Tested at: not given
Notes: 8-mer, flanks averaged, mean of 2 arrays, mostly near background
Relative to: not given
Direction: higher = stronger binding
Residues (chain): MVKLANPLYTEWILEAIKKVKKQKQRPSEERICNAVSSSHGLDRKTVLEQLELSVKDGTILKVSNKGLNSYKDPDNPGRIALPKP
Strand | E-score
CACCCGCG | 0.424
CAATCCCC | -0.0962
ATCCCAGC | -0.225
CGTTCATA | 0.0771
TCCGTAGA | 0.05
ATTAATGC | 0.0336
CCTTCAAA | -0.119
GTCAAGAC | -0.00645
CGCCTCTA | 0.151
GTCGTAAA | -0.0278
ATTCTATA | -0.0123
ACGGGCAG | 0.14
AAGCGATG | 0.112
ATCGGGCG | 0.306
ATGGGGTA | -0.126
ACCCTATC | -0.19
AGCCCCGA | 0.0593
ATGGAAAT | -0.148
ATGATACG | -0.082
ACTATTGC | -0.0208
ACTAACCT | -0.114
CAAGGCAA | -0.276
ATGAGACA | -0.198
CACACAGC | -0.0359

Series 5
Target: Sal-like protein 4, full length isoform B (SALL4, Homo sapiens, UniProt Q9UJQ4-2, residues 1-616)
Method: universal PBM
Molecule type: double-stranded DNA, one strand shown
Medium: in vitro
Tested at: not given
Notes: 8-mer, flanks averaged, mean of replicates
Direction: higher = stronger binding
Target sequence (chain): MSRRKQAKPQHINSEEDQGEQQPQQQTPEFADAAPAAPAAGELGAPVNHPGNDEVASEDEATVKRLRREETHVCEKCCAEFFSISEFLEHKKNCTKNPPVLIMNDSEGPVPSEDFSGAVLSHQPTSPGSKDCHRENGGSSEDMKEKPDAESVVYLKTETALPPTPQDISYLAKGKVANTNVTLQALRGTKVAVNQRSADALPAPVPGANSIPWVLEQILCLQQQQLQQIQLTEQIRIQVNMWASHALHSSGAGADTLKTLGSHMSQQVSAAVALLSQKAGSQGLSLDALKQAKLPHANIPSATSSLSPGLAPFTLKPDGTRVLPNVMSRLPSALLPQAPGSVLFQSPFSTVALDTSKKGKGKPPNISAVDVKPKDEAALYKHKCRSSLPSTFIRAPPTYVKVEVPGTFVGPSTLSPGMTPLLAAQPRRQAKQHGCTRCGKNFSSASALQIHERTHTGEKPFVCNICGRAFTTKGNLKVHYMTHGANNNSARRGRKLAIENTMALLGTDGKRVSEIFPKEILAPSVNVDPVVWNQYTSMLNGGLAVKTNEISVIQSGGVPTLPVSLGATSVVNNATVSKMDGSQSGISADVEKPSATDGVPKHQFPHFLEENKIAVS
Strand | E-score
GCCATCAA | -0.0692
CCGAATAC | 0.00905
CCCCAGCA | -0.138
CCATAGGC | -0.183
CTCCAACA | -0.0179
ACCGTGAC | -0.233
GTCCACAC | -0.148
TCAGGCAA | -0.0419
ACAAACTA | 0.164
CAGAACCG | -0.24
AGCGCCAT | -0.269
GTGTATGA | 0.233
AGGGGTAA | -0.0162
GGACGCGA | -0.159
AATGATAG | 0.201
CACGTGGA | 0.0694
CTTGCGTA | 0.00916
ATCTCCCC | -0.12
TGACACCA | -0.0712
AGGTTTTA | 0.0723
CACAATGG | 0.0468
GGCACGAC | -0.181
CCTACTGA | -0.0797
GCGTACTA | -0.0323
CGTGTGCC | -0.277

Repeated from above (series 5):
Strand | E-score
AGGGGTAA | -0.0162
CCCCAGCA | -0.138
CGTGTGCC | -0.277
GTCCACAC | -0.148
ATCTCCCC | -0.12
CTCCAACA | -0.0179
CAGAACCG | -0.24
CCGAATAC | 0.00905
CCATAGGC | -0.183
ACAAACTA | 0.164
GCCATCAA | -0.0692
GCGTACTA | -0.0323
CACGTGGA | 0.0694
